Experimental data pooled from the literature.
Protocols differ between the studies behind these lines. Numbers after ± are the reported error.
Organism: Plasmodium falciparum

CC(C)=CCC/C(C)=C/Cc1c(CCC(=O)c2ccc(O)cc2O)ccc(O)c1O — EC50 (parasite growth, PfLDH; 3D7 wild type): 10400 nM
COc1ccccc1C1Sc2ccccc2NC2=C1C(=O)c1ccccc12 (racemic) — EC50 (growth, [3H]hypoxanthine incorporation; 3D7): > 5000 nM
Cc1ccc(NCC(=O)Nc2ccc(F)c(Cl)c2)cc1S(=O)(=O)N1CCOCC1 — EC50 (parasite growth; 3D7; blood stage): 140 nM
CNC(=O)c1c(F)cccc1Nc1nc(Nc2cc3c(cc2OC)CCN3C(=O)CN(C)C)nc2[nH]ccc12 — EC50 (C235): 1580 nM
CCCCCCCCCC1=CC(=O)c2ccccc2S1(=O)=O — EC50 (parasite growth; 3D7; 72 h, blood stage): 69900 nM
O=C1C2=C(Nc3ccccc3SC2c2ccc(F)cc2)c2ccccc21 (racemic) — EC50 (growth, [3H]hypoxanthine incorporation; 3D7): 33 nM
Nc1ccc(C(=O)/C=C/c2ccccc2F)cc1 — EC50 (parasite growth; 3D7; 48 h, blood stage): 12000 nM
COC[C@H](NC(=O)[C@H](CCc1ccccc1)NC(=O)CN1CCOCC1)C(=O)N[C@H](/C=C/S(C)(=O)=O)Cc1cccs1 — EC50 (flow cytometry YOYO-1; W2 ring stage; 72 h no washout): 8 ± 2 nM
COC(=O)c1[nH]c(C(=O)OC)c2c1-c1c[nH]c3ccc(Cl)c(c13)C21C=Nc2ccc(Cl)cc21 (racemic) — EC50 (parasite growth, SYBR Green; 3D7; 72 h, blood stage): 2800 nM
CN(C)Cc1cc(/C=C/C(=O)c2ccc(Cl)cc2)ccc1O — EC50 (parasite growth; 3D7; 72 h, blood stage): 2690 nM
Cc1ccc(NCC(=O)Nc2nccs2)cc1S(=O)(=O)N1CCOCC1 — EC50 (parasite growth; 3D7; blood stage): > 50000 nM
Cc1ccc(CNC(=O)[C@H](CCc2ccccc2)NC(=O)[C@H](CCc2ccccc2)NC(=O)[C@@H](N)Cc2ccncc2)cc1 — EC50 (parasite growth; D10; 72 h, blood stage): 357 nM
CCCCCCCC1=CC(=O)c2ccccc2S1(=O)=O — EC50 (parasite growth; 3D7; 72 h, blood stage): 53700 nM
CC(C)C1NC(=O)C(Cc2ccccc2)NC(=O)C(CCCCCC(=O)C2CO2)NC(=O)C2CCCCN2C1=O (stereo not shown) — EC50 (parasite growth, SYBR Green I; 3D7, drug-sensitive; 72 h): 350 ± 70 nM
COC[C@H](NC(=O)[C@H](CC1CCCCC1)NC(=O)CN1CCOCC1)C(=O)N[C@H](/C=C/S(C)(=O)=O)CC(C)C — EC50 (flow cytometry YOYO-1; W2 ring stage; 72 h no washout): 359 ± 42 nM
Cc1ccc(NCC(=O)Nc2ccon2)cc1S(=O)(=O)N1CCOCC1 — EC50 (parasite growth; 3D7; blood stage): > 50000 nM
COC[C@H](NC(=O)[C@H](CCc1ccccc1)NC(=O)c1cnc(C)s1)C(=O)N[C@H](/C=C/S(C)(=O)=O)Cc1cccs1 — EC50 (flow cytometry YOYO-1; W2 ring stage; 72 h no washout): 3 ± 0.7 nM
Cc1ccc(NCC(=O)Nc2ccc(F)c(Cl)c2)cc1S(=O)(=O)N(C)C — EC50 (parasite growth; 3D7; blood stage): 690 nM
Cc1cc(N2CC[C@](C#N)(C3(C)CC3)C2=O)cc(C(=O)NCc2cc(F)cc(-c3cnn(C)c3)c2)n1 — EC50 (asexual blood-stage growth, SYBR Green I; 3D7; 48 h): 2760 nM
O=C(CNc1ccc(Cl)c(S(=O)(=O)N2CCOCC2)c1)Nc1ccc(F)c(Cl)c1 — EC50 (parasite growth; 3D7; blood stage): 60 nM
COC(=O)c1[nH]c(C(=O)OC)c2c1-c1c[nH]c3ccc(Cl)c(c13)C21CN(C)c2ccc(Cl)cc21 (racemic) — EC50 (parasite growth, SYBR Green; 3D7; 72 h, blood stage): 3700 nM
O=c1cc[s+]([O-])c2ccccc12 (racemic) — EC50 (parasite growth; 3D7; 72 h, blood stage): 106000 nM
OC(CN1CCC2(CC1)CC(O)c1ccc3ccccc3c1O2)c1ccc(F)c(F)c1 (stereo not shown) — EC50 (3D7 chloroquine-sensitive; 72 h): 390 nM
Cc1ccc(NCCNc2ccc(F)c(Cl)c2)cc1S(=O)(=O)N1CCOCC1 — EC50 (parasite growth; 3D7; blood stage): 22600 nM
COc1cc(C(=O)N2CCN(C)CC2)ccc1-c1cc2nccc(-c3ccc4cnccc4c3)c2o1 — EC50 (parasite growth; 3D7; blood stage): 160 nM
Cc1ccc(CNC(=O)[C@@H]2Cc3cccc(c3)Oc3cccc(c3)C[C@H](N)C(=O)N[C@@H](CCc3ccccc3)C(=O)N2)cc1 — EC50 (parasite growth; D10; 72 h, blood stage): 34.5 nM
Cc1ccc(NCC(=O)NC2CCC(F)(F)CC2)cc1S(=O)(=O)N1CCOCC1 — EC50 (parasite growth; 3D7; blood stage): 1710 nM
Cc1ccc(CNC(=O)[C@@H](NC(=O)[C@H](CCc2ccccc2)NC(=O)[C@@H](NC(=O)c2cnc(C)cn2)C(C)(C)C)C(C)C)cc1 — EC50 (parasite growth; D10; 72 h, blood stage): 64.4 nM
O=c1cc[s+]([O-])c2ccc(Cl)cc12 (single isomer, unassigned; (-)) — EC50 (parasite growth; 3D7; 72 h, blood stage): 230000 nM
O=C(CNc1ccc(F)c(S(=O)(=O)N2CCOCC2)c1)Nc1ccc(F)c(Cl)c1 — EC50 (parasite growth; 3D7; blood stage): 580 nM
Cc1ccc(CNC(=O)[C@@H](NC(=O)[C@H](CCc2ccccc2)NC(=O)[C@H](CCc2ccccc2)NCc2cnccn2)C(C)C)cc1 — EC50 (parasite growth; D10; 72 h, blood stage): 221 nM

A few entries again:
O=c1cc[s+]([O-])c2ccccc12 (racemic) — EC50 (parasite growth; 3D7; 72 h, blood stage): 106000 nM
OC(CN1CCC2(CC1)CC(O)c1ccc3ccccc3c1O2)c1ccc(F)c(F)c1 (stereo not shown) — EC50 (3D7 chloroquine-sensitive; 72 h): 390 nM
Cc1ccc(NCCNc2ccc(F)c(Cl)c2)cc1S(=O)(=O)N1CCOCC1 — EC50 (parasite growth; 3D7; blood stage): 22600 nM
